Results pooled from the literature.
Each numbered part is a random draw from the data of one study; scales do not carry over between parts.
UniProt Q9Y2I7, sequence (whole entry, looked up): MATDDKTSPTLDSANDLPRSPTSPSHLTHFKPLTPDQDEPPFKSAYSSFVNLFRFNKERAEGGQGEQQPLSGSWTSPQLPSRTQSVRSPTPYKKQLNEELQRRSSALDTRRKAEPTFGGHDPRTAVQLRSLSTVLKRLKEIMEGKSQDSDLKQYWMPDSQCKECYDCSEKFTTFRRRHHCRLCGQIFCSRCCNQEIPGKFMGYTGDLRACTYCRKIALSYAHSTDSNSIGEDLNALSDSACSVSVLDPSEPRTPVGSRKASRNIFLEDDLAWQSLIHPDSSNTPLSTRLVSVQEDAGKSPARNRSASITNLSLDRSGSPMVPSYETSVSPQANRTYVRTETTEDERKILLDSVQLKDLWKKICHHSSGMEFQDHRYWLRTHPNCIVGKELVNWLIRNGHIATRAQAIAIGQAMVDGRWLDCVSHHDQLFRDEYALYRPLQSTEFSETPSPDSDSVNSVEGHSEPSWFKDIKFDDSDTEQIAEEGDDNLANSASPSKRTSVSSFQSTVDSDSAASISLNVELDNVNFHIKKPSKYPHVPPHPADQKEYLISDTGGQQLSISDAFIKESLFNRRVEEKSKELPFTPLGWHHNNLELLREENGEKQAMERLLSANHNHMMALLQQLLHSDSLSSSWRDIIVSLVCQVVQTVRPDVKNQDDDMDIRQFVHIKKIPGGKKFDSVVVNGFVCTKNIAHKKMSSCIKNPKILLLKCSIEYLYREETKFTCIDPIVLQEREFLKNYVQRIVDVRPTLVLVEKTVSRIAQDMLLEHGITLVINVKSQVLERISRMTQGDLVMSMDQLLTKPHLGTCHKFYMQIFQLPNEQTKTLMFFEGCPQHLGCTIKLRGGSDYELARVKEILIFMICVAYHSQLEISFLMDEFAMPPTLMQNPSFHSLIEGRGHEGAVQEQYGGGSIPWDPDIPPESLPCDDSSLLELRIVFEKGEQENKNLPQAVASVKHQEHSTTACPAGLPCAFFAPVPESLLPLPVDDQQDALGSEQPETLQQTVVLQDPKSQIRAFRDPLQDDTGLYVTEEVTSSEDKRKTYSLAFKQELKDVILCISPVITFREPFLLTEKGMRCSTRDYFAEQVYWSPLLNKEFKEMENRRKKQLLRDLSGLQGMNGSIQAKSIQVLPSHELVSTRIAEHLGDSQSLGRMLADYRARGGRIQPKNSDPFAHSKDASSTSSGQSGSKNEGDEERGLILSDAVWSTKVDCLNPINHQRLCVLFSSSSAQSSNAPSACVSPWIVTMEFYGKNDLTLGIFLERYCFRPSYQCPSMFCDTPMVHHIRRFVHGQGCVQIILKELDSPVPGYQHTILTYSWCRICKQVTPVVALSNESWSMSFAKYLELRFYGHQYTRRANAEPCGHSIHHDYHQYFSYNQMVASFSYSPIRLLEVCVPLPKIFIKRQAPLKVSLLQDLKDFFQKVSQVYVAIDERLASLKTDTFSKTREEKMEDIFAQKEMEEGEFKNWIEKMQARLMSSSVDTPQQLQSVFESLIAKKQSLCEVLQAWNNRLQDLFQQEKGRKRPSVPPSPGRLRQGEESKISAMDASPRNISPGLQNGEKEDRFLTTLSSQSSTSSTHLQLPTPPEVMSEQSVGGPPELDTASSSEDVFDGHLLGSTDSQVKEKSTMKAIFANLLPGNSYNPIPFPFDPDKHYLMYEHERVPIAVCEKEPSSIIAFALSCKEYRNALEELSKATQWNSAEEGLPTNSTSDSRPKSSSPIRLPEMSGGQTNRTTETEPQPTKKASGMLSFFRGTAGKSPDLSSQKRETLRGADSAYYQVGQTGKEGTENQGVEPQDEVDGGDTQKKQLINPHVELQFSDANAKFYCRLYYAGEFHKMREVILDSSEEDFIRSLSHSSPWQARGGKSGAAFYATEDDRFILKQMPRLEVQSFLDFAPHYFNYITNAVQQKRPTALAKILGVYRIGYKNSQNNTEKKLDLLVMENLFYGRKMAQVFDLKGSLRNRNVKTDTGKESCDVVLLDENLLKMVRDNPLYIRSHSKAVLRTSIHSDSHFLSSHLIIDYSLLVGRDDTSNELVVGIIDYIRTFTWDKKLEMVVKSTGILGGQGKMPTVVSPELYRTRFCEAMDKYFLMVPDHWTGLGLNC
UniProt Q13188, sequence (whole entry, looked up): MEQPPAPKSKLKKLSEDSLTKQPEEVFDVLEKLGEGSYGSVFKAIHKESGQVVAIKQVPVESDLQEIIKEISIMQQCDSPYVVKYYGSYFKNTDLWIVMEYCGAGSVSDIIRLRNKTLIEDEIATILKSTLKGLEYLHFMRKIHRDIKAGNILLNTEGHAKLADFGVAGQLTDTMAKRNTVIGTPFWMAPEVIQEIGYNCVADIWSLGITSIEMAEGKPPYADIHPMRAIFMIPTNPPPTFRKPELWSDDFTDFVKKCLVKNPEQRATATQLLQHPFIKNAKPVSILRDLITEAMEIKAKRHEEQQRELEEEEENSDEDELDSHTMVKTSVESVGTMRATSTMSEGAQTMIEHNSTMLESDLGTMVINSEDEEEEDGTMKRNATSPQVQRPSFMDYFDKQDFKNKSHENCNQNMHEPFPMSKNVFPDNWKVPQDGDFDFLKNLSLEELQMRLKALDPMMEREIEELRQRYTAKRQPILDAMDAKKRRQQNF
UniProt P00519, sequence (whole entry, looked up): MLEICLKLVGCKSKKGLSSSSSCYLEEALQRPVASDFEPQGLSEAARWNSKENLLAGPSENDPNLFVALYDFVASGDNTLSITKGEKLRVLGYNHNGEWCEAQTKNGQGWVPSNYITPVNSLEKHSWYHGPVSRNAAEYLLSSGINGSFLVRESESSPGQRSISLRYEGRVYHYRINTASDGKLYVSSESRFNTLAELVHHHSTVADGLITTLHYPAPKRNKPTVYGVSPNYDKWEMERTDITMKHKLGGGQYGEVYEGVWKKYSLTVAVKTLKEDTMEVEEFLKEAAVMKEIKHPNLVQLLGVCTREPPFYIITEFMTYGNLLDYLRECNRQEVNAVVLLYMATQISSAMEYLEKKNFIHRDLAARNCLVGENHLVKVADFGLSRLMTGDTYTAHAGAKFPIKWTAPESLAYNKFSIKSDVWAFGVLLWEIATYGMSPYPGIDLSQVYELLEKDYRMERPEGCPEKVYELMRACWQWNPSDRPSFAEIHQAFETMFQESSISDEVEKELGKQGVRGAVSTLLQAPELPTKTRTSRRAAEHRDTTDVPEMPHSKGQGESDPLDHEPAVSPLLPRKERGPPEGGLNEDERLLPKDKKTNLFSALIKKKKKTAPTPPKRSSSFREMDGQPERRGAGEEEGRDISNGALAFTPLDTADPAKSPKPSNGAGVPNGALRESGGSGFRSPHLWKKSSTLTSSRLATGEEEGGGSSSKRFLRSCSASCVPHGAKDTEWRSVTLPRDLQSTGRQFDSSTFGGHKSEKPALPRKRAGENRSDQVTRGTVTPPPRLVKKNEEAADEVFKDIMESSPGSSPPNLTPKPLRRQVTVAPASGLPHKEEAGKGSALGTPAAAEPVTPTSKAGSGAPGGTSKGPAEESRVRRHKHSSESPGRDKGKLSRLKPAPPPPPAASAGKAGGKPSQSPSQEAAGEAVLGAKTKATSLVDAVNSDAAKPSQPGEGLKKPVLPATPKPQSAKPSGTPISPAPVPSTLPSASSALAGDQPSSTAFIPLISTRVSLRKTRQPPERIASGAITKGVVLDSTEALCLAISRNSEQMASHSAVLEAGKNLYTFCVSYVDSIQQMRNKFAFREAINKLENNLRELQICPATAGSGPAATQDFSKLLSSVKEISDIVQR
UniProt Q15208, sequence (whole entry, looked up): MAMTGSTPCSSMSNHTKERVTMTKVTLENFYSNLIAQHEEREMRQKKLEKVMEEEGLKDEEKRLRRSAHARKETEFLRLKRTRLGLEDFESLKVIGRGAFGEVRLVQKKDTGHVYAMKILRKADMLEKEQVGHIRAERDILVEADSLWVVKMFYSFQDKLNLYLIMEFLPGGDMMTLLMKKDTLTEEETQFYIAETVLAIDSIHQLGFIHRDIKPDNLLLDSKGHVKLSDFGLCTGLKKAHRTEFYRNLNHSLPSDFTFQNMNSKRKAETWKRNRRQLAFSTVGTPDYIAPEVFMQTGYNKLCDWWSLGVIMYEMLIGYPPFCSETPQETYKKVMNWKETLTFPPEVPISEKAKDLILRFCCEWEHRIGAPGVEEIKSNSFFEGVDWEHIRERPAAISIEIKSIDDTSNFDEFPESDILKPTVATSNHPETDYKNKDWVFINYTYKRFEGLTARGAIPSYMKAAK

Sample 1
Target: Mitogen-activated protein kinase 9 (MAPK9, Homo sapiens, UniProt P45984)
UniProt P45984, sequence (whole entry, looked up): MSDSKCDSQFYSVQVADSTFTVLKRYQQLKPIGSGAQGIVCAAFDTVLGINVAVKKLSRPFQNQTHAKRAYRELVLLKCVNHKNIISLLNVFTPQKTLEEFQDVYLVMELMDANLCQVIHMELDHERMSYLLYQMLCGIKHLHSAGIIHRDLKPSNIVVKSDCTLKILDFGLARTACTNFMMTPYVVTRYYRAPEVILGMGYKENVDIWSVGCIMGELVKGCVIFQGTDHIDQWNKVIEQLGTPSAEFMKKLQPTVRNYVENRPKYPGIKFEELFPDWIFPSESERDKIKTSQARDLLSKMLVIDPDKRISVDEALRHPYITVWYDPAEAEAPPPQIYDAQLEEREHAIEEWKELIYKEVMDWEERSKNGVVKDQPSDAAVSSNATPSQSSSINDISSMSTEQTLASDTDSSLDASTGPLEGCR
Effect on: enzyme activity
Mode: inhibitor
Concentration: 0.5 µM
Reference: control
Endpoint: remaining activity
O=C(O)c1ccc2c3c1cccc3c(=O)n1c3ccccc3nc21: 97.5%
CC(C)[C@H](CO)Nc1nc(Nc2cc(N)cc(Cl)c2)c2ncn(C(C)C)c2n1: 99.8%
Cn1c2ccccc2c2c3c(c4c5ccccc5n(CCC#N)c4c21)CNC3=O: 86%
CNC(=O)c1cc(Oc2ccc(NC(=O)Nc3ccc(Cl)c(C(F)(F)F)c3)cc2)ccn1: 94.8%
COc1cc2ncnc(Nc3ccc(Oc4ccccc4)cc3)c2cc1OC: 99%
COc1ccc(OC)c2c(=S)c3ccccc3[nH]c12: 102%
Nc1ccc2ncnc(NCCc3ccc(Oc4ccccc4)cc3)c2c1: 85%
O=c1c2ccccc2[nH]c(=S)n1CCN1CCC(=C(c2ccc(F)cc2)c2ccc(F)cc2)CC1: 97%
COc1ccc(C(=O)Nc2sc3c(c2C(N)=O)CCCC3)cc1OC: 118%
Cc1nc(-c2ccccc2)c(-c2ccncc2)o1: 98.2%
COc1ccc(CNC(=O)Nc2ncc([N+](=O)[O-])s2)cc1: 135%
CCOC(=O)c1c(C)[nH]c(/C=C2\C(=O)Nc3ccccc32)c1C: 93.9%
O=C(CCCc1ccc(-c2ccccc2F)cc1)Nc1ccc(O)cc1: 106%
O=C1NC(=O)C(c2cn(CCCn3ccnc3)c3ccccc23)=C1Nc1ccccc1: 101%
C#Cc1cccc(Nc2ncnc3cc(OCCOC)c(OCCOC)cc23)c1: 98.4%

Sample 2
Target: Calcium/calmodulin-dependent protein kinase type II subunit alpha (CAMK2A, Homo sapiens, UniProt Q9UQM7)
UniProt Q9UQM7, sequence (whole entry, looked up): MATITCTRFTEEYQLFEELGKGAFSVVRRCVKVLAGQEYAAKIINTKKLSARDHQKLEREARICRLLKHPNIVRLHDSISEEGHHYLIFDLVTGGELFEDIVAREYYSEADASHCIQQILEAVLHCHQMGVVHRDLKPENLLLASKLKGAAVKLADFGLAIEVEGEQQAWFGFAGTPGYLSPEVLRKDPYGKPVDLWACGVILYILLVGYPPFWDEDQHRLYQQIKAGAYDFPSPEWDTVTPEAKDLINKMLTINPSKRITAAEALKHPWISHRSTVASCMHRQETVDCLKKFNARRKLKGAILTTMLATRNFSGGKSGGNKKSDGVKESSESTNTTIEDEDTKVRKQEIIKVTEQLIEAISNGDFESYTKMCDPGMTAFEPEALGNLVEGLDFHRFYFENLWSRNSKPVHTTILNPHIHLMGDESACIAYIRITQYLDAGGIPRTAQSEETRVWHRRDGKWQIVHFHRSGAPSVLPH
Effect on: enzyme activity
Mode: inhibitor
Concentration: 10 µM
Endpoint: inhibition
O=c1ccc2ccccc2o1: -7%
CCN[C@H]1C[C@H](C)S(=O)(=O)c2sc(S(N)(=O)=O)cc21: -8%
COc1cc(NC(C)CCCN)c2ncccc2c1 (stereo not drawn): 14%
O=C(O)c1cc2ccccc2[nH]1: -22%
COc1cc2ccc(=O)oc2cc1O[C@@H]1O[C@H](CO)[C@@H](O)[C@H](O)[C@H]1O: 28%
O=C[C@H](O)[C@@H](O)[C@H](O)[C@H](O)COP(=O)(O)O: 18%
O=C(O)c1ccc(=O)oc1: -26%
C[C@H](CC(=O)C[C@@H](C)[C@H]1CC(=O)[C@@]2(C)C3=C(C(=O)C[C@]12C)[C@@]1(C)CC[C@H](O)C(C)(C)[C@@H]1C[C@@H]3O)C(=O)O: -9%

Sample 3
Compound: NS(=O)(=O)c1cc(NC(=O)Cc2ccccc2)ccc1Oc1cccc(Cl)c1
Effect on: cell-free assay
Technique: competition with immobilised ligand
Concentration: 1 µM
Endpoint: remaining binding
Serine/threonine-protein kinase TAO1 (TAOK1, Homo sapiens, UniProt Q7L7X3): 93%
Serine/threonine-protein kinase 38 (STK38, Homo sapiens, UniProt Q15208): 90%
Tyrosine-protein kinase ABL1, non-phosphorylated (ABL1, Homo sapiens, UniProt P00519): 78%
TRAF2 and NCK-interacting protein kinase (TNIK, Homo sapiens, UniProt Q9UKE5): 93%
Serine/threonine-protein kinase 3 (STK3, Homo sapiens, UniProt Q13188): 78%
1-phosphatidylinositol 3-phosphate 5-kinase (PIKFYVE, Homo sapiens, UniProt Q9Y2I7): 95%
Mitogen-activated protein kinase kinase kinase 11 (MAP3K11, Homo sapiens, UniProt Q16584): 78%

Sample 4
Effect on: AlphaScreen signal
Technique: AlphaScreen counter screen
Matrix: His6 peptide without bromodomain
Concentration: 50 µM
Setting: assay interference check
Endpoint: inhibition
COC(=O)Cn1cc(C=C2SC(=O)NC2=O)c2ccccc21: 6.35%
Cl.Cl.O=C1c2c(O)ccc(O)c2C(=O)c2c(NCCNCCO)ccc(NCCNCCO)c21: 98.9%
CC1(C)CNc2cc(NC(=O)c3cccnc3NCc3ccncc3)ccc21: 53.9%
N#Cc1c(-c2ccccc2)cc(-c2cc(Br)ccc2O)[nH]c1=O: -5.75%
COc1cc(O)c2c(c1)/C=C/C[C@H](O)[C@H](O)C(=O)/C=C\C[C@H](C)OC2=O: 17.8%
Cc1[nH]c(/C=C2\C(=O)Nc3ccccc32)c(C)c1CCC(=O)O: 20%
CCOC(=O)c1cnc2oc3ccc(O)cc3c2c1-c1ccccc1: 15.8%
COCCNCc1ccc(-c2cc3nccc(Oc4ccc(NC(=S)NC(=O)Cc5ccc(F)cc5)cc4F)c3s2)nc1: 43.1%
O=c1c(-c2ccc(O)cc2)coc2cc(O)cc(O)c12.O=c1c(-c2ccc(O)cc2)coc2cc(O)cc(O)c12: 14.2%

A few entries again (sample 2):
CCN[C@H]1C[C@H](C)S(=O)(=O)c2sc(S(N)(=O)=O)cc21: -8%
COc1cc(NC(C)CCCN)c2ncccc2c1 (stereo not drawn): 14%
O=C(O)c1cc2ccccc2[nH]1: -22%
COc1cc2ccc(=O)oc2cc1O[C@@H]1O[C@H](CO)[C@@H](O)[C@H](O)[C@H]1O: 28%
O=C[C@H](O)[C@@H](O)[C@H](O)[C@H](O)COP(=O)(O)O: 18%
O=C(O)c1ccc(=O)oc1: -26%
